Experimental data from different studies.
Each numbered part is a random draw from the data of one study; scales do not carry over between parts.

Series 1 — technique: RNA Bind-n-Seq; form: RNA; matrix: in vitro; tested at: 365 nM; relative to: no-protein control; direction: higher = stronger binding
Target: RNA binding protein fox-1 homolog 2, RRM domain, GST-SBP tag (RBFOX2, Homo sapiens, UniProt O43251-10, residues 100-194)
Setting: natural RNA segment, single round, ends assumed
Constant ends, left off below: GGGAGUUCUACAGUCCGACGAUC … UGGAAUUCUCGGGUGCCAA
Target sequence (chain): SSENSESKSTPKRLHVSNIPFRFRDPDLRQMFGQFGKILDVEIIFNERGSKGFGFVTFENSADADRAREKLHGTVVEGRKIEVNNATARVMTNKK
| Sequence | RBNS enrichment (R) |
| --- | --- |
| UUUACCCUCUUGAAAUUUCUUAGCCAGCAACUUGUUCUGCAGGGGCCCACUGAAGCAGAAGGUUUUUCUCUGGGGGAACCUGUCUCAGUGUUGACUGCAUUGUUGUAGUC | 0.362 |
| CACAGCCAUUCCCUCAUGAGAGGUGGCUCUCAUGGCAUCUUGCAAUGUUUGUCUUGUUUUGUUCAUUUGGCCAGUAAGGAAUGUCCCUGGGCUUUGAGUUUCCAGAAAGA | 1.24 |
| CAGUAAUUACAAGCUGACUUUUUACUGAACAUAGGAAUGUUAAAAACAAAUGUGUAGGUGGCUGGAGAAAUGGCUUAGUGGUUAAGAGCUCGGUCCUGAGUUCAAUUCCC | 0.725 |
| UGUUCUCUUCCUCACCUGAAAUUAUGCUUCCUAAAAUCUCAAGCCAAACUCAAAGAAUGGGGUGGUGGGGGGCACCCUGUGAGGUGGCCCCUGAGAGGUGGGGGCCUCUC | 0.338 |
| CCUCUGAAUUGUGCUACAUCAGCGAACAAGUCGGCGCUUGAAUUGGAUUUUGAGGUUAUUUUAACCAUGGAAUUAUUUUUAUAGAAGGGGAAAAUGUAUGUGAAAGUCUC | 1.35 |
| GCAUAACUUGUUAUUGUCCUAGAUGUGUUUGAUAUUUUUCCUUUACAACUGAAUGCUAUAAAAGUGUUUUGCUGUGUACACAUAAGAUACUGUUCGUUAAAAUAAGCAUU | 1.01 |
| UUCUAGUCGGGAGCCCAUGCCCUGGAAAUCCAUCUUUCUUCAUCUUUCCCAUUGACCACUUUGGGUUUGACCUGCACAUCUGCAGUGAGGGCAGAAUUCAACAAGCACAA | 0.442 |
| AAGAUGCUACUGUUUUAAAGGAAAAAAAAAAAAAAAAGUACUGAUCUUCAAUAUGAAGACAUGAGCUUUUCUCGCAGGAAAUUUUCUUUUUCACAGAACUGGUGUCAGGA | 0.663 |
| GAUGCCUUGCCAGUGUGUCUUACUUGGUUGCUGAACAUCUUGCCACCUCCGAGUGCUUUGUCUCCACUCAGUACCUUGGAUCAGAGCUGCUGAGUUCAGGAUGCCUGCGU | 0.867 |
| AGAUGAAAAUGCUGAGUUCUGAGAGAGUUCCAAUGAGGAGCUGCCUUUCAGCUUUGGAAAAUAUGCAACUAAAACAAAACCAAACAUUAUUGUAAUCUGACACAGGCAAA | 1.14 |
| AUCUGAAGAUGAUUGCUUUUCCCUGCUGCCAGCUGAUCUGAAAUGUUUUGCUGGCACAUUAAUCAUAGAUAAAGAAAGAUUGAUGGACUUAGCCCUCAAAUUUCAGUAUC | 0.207 |
| CCUAAGGAGAUUCCACACAUGCGUAUCUCUGUUGCUUCUAUUGGCCUAAACCCACUACUGCCAAAGAACCCAGCAACAAACCUCCCGGCUAGGAGCUUUAGAAGUCUUUA | 0.313 |

Series 2 — technique: RNA Bind-n-Seq; form: RNA; matrix: in vitro; tested at: not given; relative to: input RNA pool; direction: higher = stronger binding
Target: RING finger protein unkempt homolog, zinc fingers 1-6, GST-SBP tag (UNK, Homo sapiens, UniProt Q9C0B0, residues 30-357)
Setting: RNA with constant flanks, human and mouse sites, ends assumed
Constant ends, left off below: GGGAGUUCUACAGUCCGACGAUC … CAACAGAGGAUUGAGCAUCA
Target sequence (chain): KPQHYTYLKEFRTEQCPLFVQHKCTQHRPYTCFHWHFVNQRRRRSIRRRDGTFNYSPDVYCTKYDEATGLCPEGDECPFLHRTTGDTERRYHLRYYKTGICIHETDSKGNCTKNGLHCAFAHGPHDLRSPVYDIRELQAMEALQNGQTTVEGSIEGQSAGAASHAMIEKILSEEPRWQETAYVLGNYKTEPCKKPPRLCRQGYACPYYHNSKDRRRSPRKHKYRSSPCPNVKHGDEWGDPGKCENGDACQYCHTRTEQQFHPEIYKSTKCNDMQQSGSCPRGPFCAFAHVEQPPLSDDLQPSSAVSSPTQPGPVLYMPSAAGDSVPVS
| Sequence | bound/input enrichment [ratio] |
| --- | --- |
| AAAAUUUUUGCCUUUGCCAACUCAUUAGUGGAGCUUCUGGCUGUGGGACUAGACACCUUUAACAGAGCCCGCUACAGGCAGUUUGUGAAGCGCAUUGGAUACCUGAUCAGGAUGACCCUU | 0.27 |
| AGACGUUGUGUUUCCUCAGCCAUUUUCCCUCUGCUGCCCCAGUUUACUCUGUCCAAAACCCUAAGGUUCUUCUCUCACUUGAACACAGACGACCUUGCUUGGGUGAUGAGACAUCCCCUU | 0.171 |
| GAGAUGGAGAUACAAAUGAAAUCAAAAAAGCUUCCAAUUACGCGAAAGUUUUAUGCCUUUUAUCAUGCACCAAUUGUAAAAUUCUGGUUUAACACGUUGGCAUAUUUAGGAUUUCUGAUG | 0.68 |
| GCUGUGGAUUCAGAGAUACUGGAGAUGCCACCUGAAAAAGCAGAUGGAGUAGUGGAGGGGAUAGAUGUAAAUGGACCAAAAGCACAGCUGAUGUUGCGGUAUCCAGAUGGAAAAAGGGAA | 1.1 |
| CUGGAGGAGCUGAAACUUGAAUCUGCAGAGCUCUAUGCCGAGGCCAUAAAGCGGGAUACCAGCCUAUUCCCCUUCGAGAAAGAAGGGCCACAUUACACACCACCUAUCUCUAACUACCAG | 0.271 |
| AGAAAUGAAACUUCUCAAAUGAGCCAACCUGAGUCACAAGAUCACAGGUUUGUGCCAGCAACAGAAAGUGAAAAAAAAUUUCAGAAGAGACUUCAGGAAAUUCUCAAACAGAAUGAUUUC | 0.133 |
| CCCAGUCACCCUCUCGAGUUAUCAGAAAAAAACUUCCAGCUCAACCAGGACAAGAUGAACUUUUCCACGCUGAGGAACAUCCAGGGUCUGUUUGCUCCCCUGAAGUUACAGAUGGAAUUC | 0.237 |
| GAUGAAAUCAACUUGCCCGAUAUGGAUAAAUACGGCACACAGAGAGUCAUCUCCUUCAUCAGACAGAUGGUGGAGCAUGGAGGCUUCUAUCGUACCUCAGACCAAACGUGGGUAAAGCUA | 0.157 |
| GUGGAGUUGAUGUCCUUCCCUGGCUCGCUACAGACGCACUUCCGCAAGUGUUACAGCUCUUUUAGAAUUUGUCUAGCAGGUUUUCUGACUUCGGUCGGAAAACCCCUCCCAAUUUCACUG | 0.407 |
| GAAGAAGGGCUGAAGACAGCUGAUCCCCAUGACUGCUCUGCUUAUACUGGCUGGACAGGCAUAGCCCUUUUGUACCUGCAGUUGUACCGGGUCACAUGUGACCAAACCUACCUGCUCCGA | 0.0662 |
| AGAGACAUGUUGCGGCGGAUUAAGGAAGAUGAAGAUGACAAGACAGUCAUGGAUCUUGCUGUAGUUUUGUUUGAAACGGCAACACUUCGGUCAGGAUAUCUUCUACCAGACACCAAGGCG | 0.155 |

Series 3 — technique: universal PBM; form: double-stranded DNA, one strand shown; matrix: in vitro; tested at: not given; direction: higher = stronger binding
Target: Sal-like protein 4, full length isoform B (SALL4, Homo sapiens, UniProt Q9UJQ4-2, residues 1-616)
Setting: 8-mer, flanks averaged, mean of replicates
Construct (chain): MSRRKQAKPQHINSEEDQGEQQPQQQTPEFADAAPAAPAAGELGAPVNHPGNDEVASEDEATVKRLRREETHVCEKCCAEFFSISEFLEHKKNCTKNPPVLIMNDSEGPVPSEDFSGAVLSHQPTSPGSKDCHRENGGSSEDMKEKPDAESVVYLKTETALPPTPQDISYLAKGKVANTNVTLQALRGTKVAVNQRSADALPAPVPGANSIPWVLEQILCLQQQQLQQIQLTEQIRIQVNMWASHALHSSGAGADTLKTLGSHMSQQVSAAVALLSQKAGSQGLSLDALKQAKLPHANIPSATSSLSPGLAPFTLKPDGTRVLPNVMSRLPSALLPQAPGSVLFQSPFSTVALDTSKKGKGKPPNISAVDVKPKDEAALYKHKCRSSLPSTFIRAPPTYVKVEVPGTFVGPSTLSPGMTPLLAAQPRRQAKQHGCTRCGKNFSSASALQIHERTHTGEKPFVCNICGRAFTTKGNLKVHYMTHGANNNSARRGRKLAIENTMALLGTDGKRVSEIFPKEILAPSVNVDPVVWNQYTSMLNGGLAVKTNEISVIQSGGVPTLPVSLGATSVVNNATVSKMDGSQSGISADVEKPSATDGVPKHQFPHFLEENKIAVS
| Sequence | E-score |
| --- | --- |
| CGGAGAAC | -0.129 |
| ATGGGCTG | -0.166 |
| ACAATCCA | 0.203 |
| CCAGCGGG | -0.257 |
| TCAGACGA | -0.0488 |
| AAAAGAGT | 0.035 |
| AACCGCGC | -0.204 |
| CCAGATTA | 0.192 |
| ACGGAGGC | -0.351 |
| AACACCTG | -0.0331 |
| AAAACAGC | 0.0387 |
| ATGTTAAG | 0.103 |
| AAGCAGGA | -0.0126 |
| CGTGGCTC | -0.288 |
| CGCAATGA | 0.0676 |
| CAGTAGGC | -0.0754 |
| ACTGGCGA | -0.24 |
| TCGCCTAA | -0.128 |
| CTCTGGGC | -0.18 |

Series 4 — technique: aptamer microarray, sandwich; form: DNA with 2'F-ANA; matrix: in vitro; tested at: 200 nM; added: Cy3 exosite-II aptamer, 400 nM; direction: higher = stronger binding; sequence: GGTTGGTGTGGTTGG
Target: Prothrombin, mature alpha-thrombin (F2, Homo sapiens, UniProt P00734)
Setting: whole 15-mer aptamer, many near background
| Modification | mean fluorescence intensity [a.u.] |
| --- | --- |
| 2'F-ANA at 1 3 4 5 7 8 9 10 11 13 14 15 | 46.9 |
| 2'F-ANA at 2 3 5 10 15 | 56.2 |
| 2'F-ANA at 3 4 6 8 9 10 15 | 219 |
| 2'F-ANA at 1 2 3 11 13 | 197 |
| 2'F-ANA at 1 2 3 4 5 6 8 9 11 14 15 | 47 |
| 2'F-ANA at 7 8 9 13 | 489 |
| 2'F-ANA at 1 2 6 7 9 10 11 12 13 14 15 | 48.3 |
| 2'F-ANA at 4 8 9 10 13 15 | 67.9 |
| 2'F-ANA at 3 4 7 8 10 11 | 312 |
| 2'F-ANA at 1 2 3 4 6 10 11 | 56.5 |
| 2'F-ANA at 4 5 6 8 9 10 11 14 | 69.5 |
| 2'F-ANA at 1 3 4 5 6 8 13 15 | 55.1 |
| 2'F-ANA at 2 3 4 10 11 15 | 321 |
| 2'F-ANA at 5 6 7 8 9 10 14 15 | 64.2 |
| 2'F-ANA at 1 3 4 5 8 10 11 13 | 134 |
| 2'F-ANA at 1 3 6 7 10 11 12 13 | 93.3 |
| 2'F-ANA at 1 2 4 8 10 11 12 13 14 15 | 49.9 |

Series 5 — technique: protein binding microarray; form: double-stranded DNA, one strand shown; matrix: in vitro; tested at: not given; relative to: not given; direction: higher = stronger binding
Target: Histone acetyltransferase KAT6A, both winged helices, GST fusion (KAT6A, Homo sapiens, UniProt Q92794, residues 1-181)
Setting: 8-mer, flanks averaged, mean of 2 arrays, mostly near background
Target sequence (chain): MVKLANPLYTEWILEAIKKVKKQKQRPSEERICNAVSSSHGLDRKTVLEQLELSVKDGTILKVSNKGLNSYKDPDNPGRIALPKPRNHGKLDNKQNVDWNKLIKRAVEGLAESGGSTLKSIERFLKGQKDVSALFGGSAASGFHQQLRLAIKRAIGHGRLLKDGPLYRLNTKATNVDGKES
| Sequence | E-score |
| --- | --- |
| ACCCTTGC | -0.0423 |
| ATCCCCCA | -0.27 |
| CGACACAG | 0.0272 |
| CGGTCTTA | 0.201 |
| TAAAACAA | -0.0374 |
| ACTCGTTG | -0.158 |
| TCAGCAAA | -0.0187 |
| CAACCAGA | -0.0977 |
| AAAGTTCA | -0.0889 |
| ACCTTCGT | -0.0623 |
| ACGACCGC | 0.223 |
| ATCTTGCA | 0.0408 |
| GCGCGCGA | 0.392 |
| CCCAGGTC | -0.113 |
| CCATGAGG | -0.0441 |
| ACCCGCGT | 0.296 |
| TAATTTGA | -0.148 |
| ATGTGAAG | -0.124 |
| ACGCATTC | 0.194 |
| ATCGTGAG | -0.0336 |
| AGACCCGC | 0.23 |
| ACGAGGAT | -0.205 |
| AGAAGGAA | 0.108 |
| CGCTACCA | 0.17 |

Some of these lines once more (series 5):
| Sequence | E-score |
| --- | --- |
| ACGAGGAT | -0.205 |
| CGACACAG | 0.0272 |
| CCATGAGG | -0.0441 |
| CCCAGGTC | -0.113 |
| ACCCGCGT | 0.296 |
| ATCCCCCA | -0.27 |
